Literature values as cited in several papers.
Compare with care: the assays were run in different laboratories. ± marks the error that the study gave.
lecA: PA-I galactophilic lectin (lecA, Pseudomonas aeruginosa, UniProt Q05097)
Sequence of UniProt Q05097 (whole entry, looked up): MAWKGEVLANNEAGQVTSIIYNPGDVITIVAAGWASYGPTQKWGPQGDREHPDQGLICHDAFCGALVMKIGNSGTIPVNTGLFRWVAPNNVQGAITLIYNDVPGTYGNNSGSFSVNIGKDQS
lecB: Fucose-binding lectin PA-IIL (lecB, Pseudomonas aeruginosa, UniProt Q9HYN5)
MAOB: Amine oxidase [flavin-containing] B (MAOB, Homo sapiens, UniProt P27338)
Sequence of UniProt P27338 (whole entry, looked up): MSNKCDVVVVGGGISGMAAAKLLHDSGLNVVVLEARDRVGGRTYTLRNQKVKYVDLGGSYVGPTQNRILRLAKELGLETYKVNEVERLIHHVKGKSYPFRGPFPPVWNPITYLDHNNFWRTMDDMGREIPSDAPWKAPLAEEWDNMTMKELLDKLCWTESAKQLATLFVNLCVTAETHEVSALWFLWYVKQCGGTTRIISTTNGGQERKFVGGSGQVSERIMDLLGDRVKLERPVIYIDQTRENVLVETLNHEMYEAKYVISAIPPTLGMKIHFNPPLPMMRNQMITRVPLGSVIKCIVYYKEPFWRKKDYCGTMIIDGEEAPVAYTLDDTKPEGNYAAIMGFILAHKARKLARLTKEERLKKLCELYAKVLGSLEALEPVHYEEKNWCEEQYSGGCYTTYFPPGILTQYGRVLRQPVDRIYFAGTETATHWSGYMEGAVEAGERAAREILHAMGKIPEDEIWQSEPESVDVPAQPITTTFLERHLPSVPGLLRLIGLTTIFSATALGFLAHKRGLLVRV
ribH: 6,7-dimethyl-8-ribityllumazine synthase (ribH, Mycobacterium tuberculosis, UniProt P9WHE9)
Sequence of UniProt P9WHE9 (whole entry, looked up): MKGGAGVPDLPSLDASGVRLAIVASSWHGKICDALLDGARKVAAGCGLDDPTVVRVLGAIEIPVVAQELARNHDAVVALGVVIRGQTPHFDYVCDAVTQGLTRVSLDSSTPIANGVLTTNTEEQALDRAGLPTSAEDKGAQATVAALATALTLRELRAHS
rib4: 6,7-dimethyl-8-ribityllumazine synthase (rib4, Schizosaccharomyces pombe, UniProt Q9UUB1)
Sequence of UniProt Q9UUB1 (whole entry, looked up): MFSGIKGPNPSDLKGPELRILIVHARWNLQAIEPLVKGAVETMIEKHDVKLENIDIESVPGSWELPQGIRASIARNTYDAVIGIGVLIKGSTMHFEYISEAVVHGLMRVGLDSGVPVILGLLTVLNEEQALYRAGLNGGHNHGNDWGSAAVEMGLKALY
Sequence of UniProt P63073 (28-217, looked up): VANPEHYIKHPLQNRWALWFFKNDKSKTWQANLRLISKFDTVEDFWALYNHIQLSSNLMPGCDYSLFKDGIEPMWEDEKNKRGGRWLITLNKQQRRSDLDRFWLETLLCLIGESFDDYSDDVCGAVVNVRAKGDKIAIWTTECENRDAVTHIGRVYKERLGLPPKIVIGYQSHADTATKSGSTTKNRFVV
Sequence of UniProt P63079 (whole entry, looked up): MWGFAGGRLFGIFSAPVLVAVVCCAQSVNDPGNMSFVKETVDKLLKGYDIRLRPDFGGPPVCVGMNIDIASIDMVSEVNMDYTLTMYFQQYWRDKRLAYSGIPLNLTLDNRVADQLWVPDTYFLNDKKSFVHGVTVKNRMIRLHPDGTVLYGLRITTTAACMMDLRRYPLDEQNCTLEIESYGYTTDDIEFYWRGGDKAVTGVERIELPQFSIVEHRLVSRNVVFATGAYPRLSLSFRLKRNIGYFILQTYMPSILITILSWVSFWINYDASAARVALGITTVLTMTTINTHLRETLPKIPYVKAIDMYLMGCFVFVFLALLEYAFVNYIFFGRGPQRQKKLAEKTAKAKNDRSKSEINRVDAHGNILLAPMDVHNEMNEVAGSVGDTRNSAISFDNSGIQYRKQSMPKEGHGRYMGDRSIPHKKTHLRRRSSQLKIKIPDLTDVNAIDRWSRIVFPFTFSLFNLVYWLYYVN
Sequence of UniProt Q00194 (whole entry, looked up): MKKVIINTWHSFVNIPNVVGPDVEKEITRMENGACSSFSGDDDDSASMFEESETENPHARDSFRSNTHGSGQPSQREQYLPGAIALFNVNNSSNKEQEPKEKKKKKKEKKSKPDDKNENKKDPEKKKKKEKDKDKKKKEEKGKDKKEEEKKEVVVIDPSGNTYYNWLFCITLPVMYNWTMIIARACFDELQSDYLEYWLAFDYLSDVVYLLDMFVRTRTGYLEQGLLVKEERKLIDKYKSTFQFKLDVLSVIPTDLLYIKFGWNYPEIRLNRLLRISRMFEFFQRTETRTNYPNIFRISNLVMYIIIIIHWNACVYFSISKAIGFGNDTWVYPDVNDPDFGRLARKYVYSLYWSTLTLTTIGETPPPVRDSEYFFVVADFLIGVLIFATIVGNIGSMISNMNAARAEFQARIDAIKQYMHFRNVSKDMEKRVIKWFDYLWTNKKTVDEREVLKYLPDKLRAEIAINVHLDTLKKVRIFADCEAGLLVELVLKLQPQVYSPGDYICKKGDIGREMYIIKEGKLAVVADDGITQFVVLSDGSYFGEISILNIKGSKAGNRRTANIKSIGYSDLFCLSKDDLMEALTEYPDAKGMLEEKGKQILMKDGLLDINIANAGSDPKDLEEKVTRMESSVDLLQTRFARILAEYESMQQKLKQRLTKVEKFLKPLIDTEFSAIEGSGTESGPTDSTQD
Sequence of UniProt P35499 (whole entry, looked up): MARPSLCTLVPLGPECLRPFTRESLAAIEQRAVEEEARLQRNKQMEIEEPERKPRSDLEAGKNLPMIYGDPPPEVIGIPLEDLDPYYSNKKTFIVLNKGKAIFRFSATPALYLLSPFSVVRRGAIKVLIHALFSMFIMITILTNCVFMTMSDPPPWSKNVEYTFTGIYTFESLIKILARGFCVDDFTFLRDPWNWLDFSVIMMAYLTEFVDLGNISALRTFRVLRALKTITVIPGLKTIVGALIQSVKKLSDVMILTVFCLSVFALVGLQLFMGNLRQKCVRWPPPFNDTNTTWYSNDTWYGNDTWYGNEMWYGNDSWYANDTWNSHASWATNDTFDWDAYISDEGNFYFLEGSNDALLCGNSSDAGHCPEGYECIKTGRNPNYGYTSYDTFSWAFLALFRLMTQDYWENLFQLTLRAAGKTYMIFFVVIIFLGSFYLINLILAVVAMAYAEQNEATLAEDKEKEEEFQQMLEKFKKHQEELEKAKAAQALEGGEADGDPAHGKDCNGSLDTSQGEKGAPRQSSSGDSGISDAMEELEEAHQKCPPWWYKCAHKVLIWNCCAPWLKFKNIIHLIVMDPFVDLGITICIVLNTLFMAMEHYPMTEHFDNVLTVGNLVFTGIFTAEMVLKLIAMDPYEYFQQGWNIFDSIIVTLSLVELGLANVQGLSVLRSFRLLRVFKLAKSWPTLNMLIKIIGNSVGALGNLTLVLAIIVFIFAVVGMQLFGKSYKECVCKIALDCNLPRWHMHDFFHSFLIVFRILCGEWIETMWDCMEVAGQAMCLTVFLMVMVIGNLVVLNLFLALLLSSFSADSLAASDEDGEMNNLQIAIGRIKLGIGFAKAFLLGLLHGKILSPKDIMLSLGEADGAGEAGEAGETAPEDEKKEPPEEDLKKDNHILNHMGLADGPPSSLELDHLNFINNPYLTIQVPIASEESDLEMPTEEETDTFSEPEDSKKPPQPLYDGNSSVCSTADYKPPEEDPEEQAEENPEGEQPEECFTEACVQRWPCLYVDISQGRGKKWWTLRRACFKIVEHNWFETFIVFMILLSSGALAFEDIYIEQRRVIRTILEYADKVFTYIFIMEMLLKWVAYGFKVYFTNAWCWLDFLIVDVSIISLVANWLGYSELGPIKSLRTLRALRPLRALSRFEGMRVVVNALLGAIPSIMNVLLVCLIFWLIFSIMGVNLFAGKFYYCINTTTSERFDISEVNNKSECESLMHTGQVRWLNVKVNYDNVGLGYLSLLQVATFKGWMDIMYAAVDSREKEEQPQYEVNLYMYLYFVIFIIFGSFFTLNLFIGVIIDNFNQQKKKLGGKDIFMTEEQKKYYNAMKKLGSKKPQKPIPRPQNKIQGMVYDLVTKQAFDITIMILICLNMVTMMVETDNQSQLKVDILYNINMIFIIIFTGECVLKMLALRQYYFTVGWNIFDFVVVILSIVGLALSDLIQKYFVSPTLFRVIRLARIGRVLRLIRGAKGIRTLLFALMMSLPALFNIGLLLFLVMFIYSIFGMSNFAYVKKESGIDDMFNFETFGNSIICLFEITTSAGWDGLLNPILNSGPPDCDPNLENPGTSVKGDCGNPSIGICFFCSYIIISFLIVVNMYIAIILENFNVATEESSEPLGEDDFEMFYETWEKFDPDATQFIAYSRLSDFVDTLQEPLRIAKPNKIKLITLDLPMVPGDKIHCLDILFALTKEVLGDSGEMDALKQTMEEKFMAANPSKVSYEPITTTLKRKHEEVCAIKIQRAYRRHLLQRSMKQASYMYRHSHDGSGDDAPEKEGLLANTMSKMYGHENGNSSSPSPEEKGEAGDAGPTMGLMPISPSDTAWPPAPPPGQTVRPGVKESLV
Sequence of UniProt P41145 (whole entry, looked up): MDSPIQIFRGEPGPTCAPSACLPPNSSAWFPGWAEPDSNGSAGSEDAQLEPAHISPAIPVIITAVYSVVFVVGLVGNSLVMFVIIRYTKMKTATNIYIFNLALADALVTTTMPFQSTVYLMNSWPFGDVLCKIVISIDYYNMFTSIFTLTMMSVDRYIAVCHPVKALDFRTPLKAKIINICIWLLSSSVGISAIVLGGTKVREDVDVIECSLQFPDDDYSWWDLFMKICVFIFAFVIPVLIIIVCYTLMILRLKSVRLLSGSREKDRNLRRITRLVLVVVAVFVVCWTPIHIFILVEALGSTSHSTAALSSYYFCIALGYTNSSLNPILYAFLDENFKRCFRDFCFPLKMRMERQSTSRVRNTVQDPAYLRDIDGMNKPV
Sequence of UniProt P62813 (whole entry, looked up): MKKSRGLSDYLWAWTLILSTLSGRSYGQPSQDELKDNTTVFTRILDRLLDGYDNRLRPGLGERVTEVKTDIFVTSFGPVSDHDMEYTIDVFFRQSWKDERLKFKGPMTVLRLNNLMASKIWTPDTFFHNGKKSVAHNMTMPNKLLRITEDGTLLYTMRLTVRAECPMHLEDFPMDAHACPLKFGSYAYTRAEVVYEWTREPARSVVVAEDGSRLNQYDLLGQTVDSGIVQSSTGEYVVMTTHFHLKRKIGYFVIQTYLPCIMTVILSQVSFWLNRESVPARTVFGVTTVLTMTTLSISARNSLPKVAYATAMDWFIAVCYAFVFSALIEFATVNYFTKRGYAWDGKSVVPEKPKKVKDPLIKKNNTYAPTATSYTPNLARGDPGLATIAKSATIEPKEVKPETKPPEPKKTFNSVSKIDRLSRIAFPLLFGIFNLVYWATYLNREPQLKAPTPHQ

Structure (SMILES)	target	assay	setting	scale	measurement	result
Cc1cc(C)c(S(=O)(=O)N(C)CC(=O)N(Cc2ccc(C3CCCCC3)cc2)c2ccc(C(=O)O)c(O)c2)c(C)c1	Signal transducer and activator of transcription 5B, SH2 domain (STAT5B, Homo sapiens, UniProt P51692)	fluorescence polarization	–	reference: STAT5B over STAT3	selectivity ratio	2 to 3 fold
OCCn1cc(CO[C@@H]2O[C@H](CO)[C@H](O)[C@H](O)[C@H]2O)nn1	lecA	ITC	–	–	–TΔS	2 kcal/mol
CC(=O)N[C@H]1[C@@H](O)[C@H](O)[C@@H](CO)O[C@H]1O	N-acetylmannosamine kinase (human)	substrate	–	–	Km	95 µM
CCOc1ccc(C(C)=O)cc1NC(=O)c1cccc(C(=O)O)c1	CREB-binding protein, bromodomain (CREBBP, Homo sapiens, UniProt Q92793)	–	–	reference: Kd BRD4(1) over Kd CREBBP	selectivity ratio	> 65 fold
COc1ccc(-n2nc3c4cc(Cl)ccc4[nH]cc-3c2=O)cc1	Gamma-aminobutyric acid receptor subunit alpha-1/beta-3 (Gabra1/Gabrb3, Rattus norvegicus, UniProt P62813+P63079)	ion current, modulator	α1β3γ2, together with: GABA EC3-5	–	maximum modulation	~1000%
COc1cc2c(cc1OC)CN(CCCCn1ccc3c(OCCF)cccc31)CC2	Tmem97 (Rattus norvegicus, UniProt Q5U3Y7)	binding	–	reference: Ki sigma1 over Ki sigma2	selectivity ratio	708
CCCCN(CCc1ccccc1)CCc1cccc(O)c1	OPRK1 (Homo sapiens, UniProt P41145)	agonist	–	–	Emax	45.5%
C[n+]1cn([C@@H]2O[C@H](COP(=O)(O)OP(=O)([O-])OP(=O)(O)OP(=O)(O)OC[C@H]3O[C@@H](n4cnc5c(=O)[nH]c(N)nc54)[C@H](O)[C@@H]3O)[C@@H](O)[C@H]2O)c2nc(N)nc(O)c21	Eukaryotic translation initiation factor 4E, residues 28-217 (Eif4e, Mus musculus, UniProt P63073)	binding, fluorescence quenching titration	pH 7.2	–	association constant	103 µM⁻¹
CO[C@H]1O[C@H](CNS(=O)(=O)c2c(C)cc(C)cc2C)[C@@H](O)[C@H](O)[C@@H]1O	lecB	binding, ITC	–	–	ΔG	-7.5 kcal/mol
Nc1c(O)cccc1C(=O)C[C@H](N)C(=O)O	Kynureninase (kynU, Pseudomonas fluorescens, UniProt P83788)	substrate	Pseudomonas enzyme	–	Km	200 µM
CO[C@H]1O[C@H](CO)[C@@H](O)[C@H](O)[C@@H]1O	lecB	binding, ITC	–	–	ΔH	-4.3 kcal/mol
C[C@@H]1COCCN1c1nc(-c2cnc(N)nc2)nc2c1C[C@@H]1COCCN21	MTOR (Homo sapiens, UniProt P42345)	–	–	reference: Ki PI3Kα over Ki target	selectivity ratio	105
CC(=O)c1ccc(OCc2ccc(Br)cc2)cc1O	MAOB	–	–	reference: IC50 MAO-A over IC50 MAO-B	selectivity ratio	569
CC(=O)NC1C(O)C(F)C(F)(C(=O)O)OC1C(O)C(O)CO (centres unmarked)	Trypanosoma cruzi trans-sialidase	inhibitor	–	–	inactivation concentration	5 mM
Nc1ncnc2c1ncn2C1OC(COP(=O)(O)OP(=O)(O)OCC2OC(O)C(O)C2O)C(O)C1O (centres unmarked)	TRPM2, NUDT9-H domain (Nematostella vectensis, UniProt A7T1N0)	hydrolysis, substrate	–	–	Km	4.1 ± 0.6 µM
CC[C@H](C)[C@H](NC(C)=O)C(=O)N[C@H]1CSSC[C@@H](C(=O)N[C@H](C(N)=O)[C@@H](C)O)NC(=O)[C@H](CCCNC(=N)N)NC(=O)[C@H](Cc2c[nH]cn2)NC(=O)[C@H](C)NC(=O)CNC(=O)[C@H](Cc2c[nH]c3ccccc23)NC(=O)[C@H](CC(=O)O)NC(=O)[C@H](CCC(N)=O)NC(=O)[C@H](Cc2ccc3ccccc3c2)NC(=O)[C@H](C(C)C)NC1=O	Complement C3 (Homo sapiens, UniProt P01024)	binding, ITC	–	–	−TΔS	4.8 kcal/mol
O=c1[nH]c(SC[C@H](O)[C@H](O)[C@H](O)CO)c([N+](=O)[O-])c(=O)[nH]1	ribH	–	pH 7.0	–	Ki (uncompetitive, ESI)	62 ± 23 µM
OC[C@H]1O[C@@H](OCc2cn([C@H]3[C@H](O)[C@@H](O)[C@H](c4cn([C@H]5[C@H](O)[C@@H](O)[C@H](n6cc([C@@H]7O[C@H](CO)[C@@H](n8cc(CO[C@@H]9O[C@H](CO)[C@H](O)[C@H](O)[C@H]9O)nn8)[C@H](O)[C@H]7O)nn6)O[C@@H]5CO)nn4)O[C@@H]3CO)nn2)[C@H](O)[C@@H](O)[C@H]1O	lecA	ITC	–	–	ΔG	-10.3 kcal/mol
CC(=O)N[C@@H](Cc1ccccc1)C(=O)N[C@@H](CC(=O)O)C(=O)N[C@@H](CC(N)=O)C(=O)N1CCC[C@H]1C(=O)N[C@H](C(=O)N[C@@H](Cc1ccccc1)C(=O)O)C(C)C	LDL receptor, position 807 mutant	–	–	reference: native LDL receptor	internalization index	0.95

Structure (SMILES)	target	assay	setting	scale	measurement	result
CCOC(=O)c1c(C(=O)OC)cn(CC(c2cn(C)c3ccccc23)c2cn(C)c3ccccc23)c1C	parasite topoisomerase IB	enzyme activity, inhibitor	concentration not given	–	activity	inactive
C=CC(=O)N1CCC[C@@H](n2nc(-c3cn(C)c4ccccc34)c3c(N)ncnc32)C1	EGFR (Homo sapiens, UniProt P00533)	–	–	–	kinact/Ki	80000 ± 20000 M⁻¹ s⁻¹
CN[C@H](CC(C)C)C(=O)N[C@H]1C(=O)N[C@@H](CC(N)=O)C(=O)N[C@H]2CN[C@H]3C(=O)N[C@H](C(=O)N[C@H](C(=O)O)c4cc(O)cc(O)c4-c4cc3ccc4O)[C@H](O)c3ccc(c(Cl)c3)Oc3cc2cc(c3O)Oc2ccc(cc2Cl)[C@H]1O	D-Ala-D-Lac	–	concentration not given	reference: vancomycin aglycon	binding affinity increase	40 fold
CC(=O)N1N=C(c2ccc(F)cc2)CC1c1ccc(-c2cncnc2)cc1 (centres unmarked)	EGFR	kinase activity, inhibitor	–	–	inhibitory concentration	0.19 µM
C=CC(=O)N1CCC[C@@H](n2nc(-c3ccc4ccccc4c3)c3c(N)ncnc32)C1	EGFR (Homo sapiens, UniProt P00533, L858R/T790M)	–	–	–	kinact	0.17 ± 0.02 min⁻¹
Cc1cc2c(c(=O)o1)C=C1CCC(C(C)Cn3cnc4c(N)ncnc43)CC1O2 (centres unmarked)	ABCA1	–	concentration not given	–	ABCA1 expression	increased
CC(=O)c1c(O)cccc1OCc1ccc(Br)cc1	MAOB	–	–	reference: IC50 MAO-A over IC50 MAO-B	selectivity ratio	53
CCOC(=O)C(NC(=O)CN1C(=O)/C(=C/c2ccc3c(c2)OCO3)SC1=S)C(C)C (centres unmarked)	α-glucosidase	enzyme activity	200 µM	–	inhibition	27 ± 2.06%
N=C(CF)NCCC[C@H](NC(=O)c1ccc(-c2ccccc2)cc1)c1nc2ccccc2[nH]1	PADI2 (Homo sapiens, UniProt Q9Y2J8)	inhibitor	–	–	kinact/KI	20 M⁻¹ s⁻¹
C[C@H](NC(=O)[C@@H]1CCCN1C(=O)[C@@H]1CCCN1C(=O)[C@H](C)NC(=O)[C@@H](NC(=O)[C@H](CO)NC(=O)CNC(=O)[C@@H]1CCCN1C(=O)[C@H](C)NC(=O)[C@@H]1CCCN1C(=O)[C@@H](N)CCCNC(=N)N)[C@@H](C)O)C(=O)N[C@@H](Cc1c[nH]cn1)C(=O)NCC(=O)O	14 A monoclonal antibody	SPR	–	–	koff	0.00285 s⁻¹
CC[C@@H](C)[C@H]1NC(=O)[C@@H]([C@H](C)O)NC(=O)[C@@H](Cc2c[nH]cn2)NC(=O)CNC(=O)[C@@H](CCCNC(=N)N)NC(=O)CNC(=O)[C@@H](Cc2ccccc2)NC1=O	PAI-1	–	concentration not given	–	binding	no binding
CC(C)C(=O)Nc1c(NC[C@H](O)[C@H](O)[C@H](O)CO)[nH]c(=O)[nH]c1=O	rib4	enzyme kinetics	pH 7.0	lower = tighter substrate binding	Ks	1.1 ± 0.1 µM
Cc1cccc(C)c1NC(=O)C1CCN(Cc2ccccc2)C1 (centres unmarked)	SCN4A (Homo sapiens, UniProt P35499)	sodium current block, blocker	–	reference: 0.1 Hz over compound Hz	IC50 ratio	13.7
CCOC(=O)C(=O)Nc1c(NC[C@H](O)[C@H](O)[C@H](O)CO)[nH]c(=O)[nH]c1=O	rib4	–	pH 7.0	–	Ki (uncompetitive, ESI)	15 ± 3 µM
O=C(CCN(Cc1ccccc1)Cc1ccccc1)NO	MEP1A (Homo sapiens, UniProt Q16819)	–	–	reference: meprin β Ki over meprin α Ki	selectivity ratio	45
Nc1c(SC[C@H](O)[C@H](O)[C@H](O)CO)[nH]c(=O)[nH]c1=O	rib4	enzyme kinetics	pH 7.0	lower = tighter substrate binding	Ks	0.59 ± 0.06 µM
CC1=C(/C=C/C(C)=C/C=C/C(C)=C/C=O)C(C)(C)CCC1	CNGA1 (Bos taurus, UniProt Q00194)	–	–	–	Hill coefficient	1.4
C=CC(=O)N1CCC[C@@H](n2nc(-c3cccc4ccccc34)c3c(N)ncnc32)C1	EGFR (Homo sapiens, UniProt P00533)	–	–	–	kinact/Ki	50000 ± 40000 M⁻¹ s⁻¹
O=c1[nH]c(NC[C@H](O)[C@H](O)[C@H](O)CO)c([N+](=O)[O-])c(=O)[nH]1	ribH	enzyme kinetics	pH 7.0, together with: substrate 2 fixed, 1 varied	lower = tighter substrate binding	Ks	52 ± 6 µM

Excerpt of the above:
Structure (SMILES)	target	assay	setting	scale	measurement	result
Cc1cc2c(c(=O)o1)C=C1CCC(C(C)Cn3cnc4c(N)ncnc43)CC1O2 (centres unmarked)	ABCA1	–	concentration not given	–	ABCA1 expression	increased
CC(=O)NC1C(O)C(F)C(F)(C(=O)O)OC1C(O)C(O)CO (centres unmarked)	Trypanosoma cruzi trans-sialidase	inhibitor	–	–	inactivation concentration	5 mM
COc1ccc(-n2nc3c4cc(Cl)ccc4[nH]cc-3c2=O)cc1	Gamma-aminobutyric acid receptor subunit alpha-1/beta-3 (Gabra1/Gabrb3, Rattus norvegicus, UniProt P62813+P63079)	ion current, modulator	α1β3γ2, together with: GABA EC3-5	–	maximum modulation	~1000%
OC[C@H]1O[C@@H](OCc2cn([C@H]3[C@H](O)[C@@H](O)[C@H](c4cn([C@H]5[C@H](O)[C@@H](O)[C@H](n6cc([C@@H]7O[C@H](CO)[C@@H](n8cc(CO[C@@H]9O[C@H](CO)[C@H](O)[C@H](O)[C@H]9O)nn8)[C@H](O)[C@H]7O)nn6)O[C@@H]5CO)nn4)O[C@@H]3CO)nn2)[C@H](O)[C@@H](O)[C@H]1O	lecA	ITC	–	–	ΔG	-10.3 kcal/mol
CC[C@H](C)[C@H](NC(C)=O)C(=O)N[C@H]1CSSC[C@@H](C(=O)N[C@H](C(N)=O)[C@@H](C)O)NC(=O)[C@H](CCCNC(=N)N)NC(=O)[C@H](Cc2c[nH]cn2)NC(=O)[C@H](C)NC(=O)CNC(=O)[C@H](Cc2c[nH]c3ccccc23)NC(=O)[C@H](CC(=O)O)NC(=O)[C@H](CCC(N)=O)NC(=O)[C@H](Cc2ccc3ccccc3c2)NC(=O)[C@H](C(C)C)NC1=O	Complement C3 (Homo sapiens, UniProt P01024)	binding, ITC	–	–	−TΔS	4.8 kcal/mol
CO[C@H]1O[C@H](CO)[C@@H](O)[C@H](O)[C@@H]1O	lecB	binding, ITC	–	–	ΔH	-4.3 kcal/mol
